Measured values from different studies.
Each numbered part is a random draw from the data of one study; scales do not carry over between parts. Several values in a cell are separate wells, animals, samples, runs or records.
Sequence of UniProt Q04759 (whole entry, looked up): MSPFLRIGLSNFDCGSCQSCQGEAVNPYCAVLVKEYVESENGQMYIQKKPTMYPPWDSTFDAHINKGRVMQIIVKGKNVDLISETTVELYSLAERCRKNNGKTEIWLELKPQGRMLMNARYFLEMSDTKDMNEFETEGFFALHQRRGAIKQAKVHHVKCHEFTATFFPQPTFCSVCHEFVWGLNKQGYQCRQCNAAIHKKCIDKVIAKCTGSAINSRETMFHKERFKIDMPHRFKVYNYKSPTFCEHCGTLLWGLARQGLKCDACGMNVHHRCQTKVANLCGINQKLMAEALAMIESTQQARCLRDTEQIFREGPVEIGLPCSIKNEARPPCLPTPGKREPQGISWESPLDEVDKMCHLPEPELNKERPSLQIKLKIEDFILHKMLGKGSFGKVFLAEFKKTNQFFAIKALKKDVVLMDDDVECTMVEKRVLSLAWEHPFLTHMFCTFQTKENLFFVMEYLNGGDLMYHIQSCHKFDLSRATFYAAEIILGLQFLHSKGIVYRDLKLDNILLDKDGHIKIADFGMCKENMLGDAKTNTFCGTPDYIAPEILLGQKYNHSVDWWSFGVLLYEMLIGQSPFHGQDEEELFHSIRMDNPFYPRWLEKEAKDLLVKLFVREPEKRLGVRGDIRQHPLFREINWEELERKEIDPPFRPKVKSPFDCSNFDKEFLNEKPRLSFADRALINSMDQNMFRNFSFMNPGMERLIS
Sequence of UniProt O14965 (whole entry, looked up): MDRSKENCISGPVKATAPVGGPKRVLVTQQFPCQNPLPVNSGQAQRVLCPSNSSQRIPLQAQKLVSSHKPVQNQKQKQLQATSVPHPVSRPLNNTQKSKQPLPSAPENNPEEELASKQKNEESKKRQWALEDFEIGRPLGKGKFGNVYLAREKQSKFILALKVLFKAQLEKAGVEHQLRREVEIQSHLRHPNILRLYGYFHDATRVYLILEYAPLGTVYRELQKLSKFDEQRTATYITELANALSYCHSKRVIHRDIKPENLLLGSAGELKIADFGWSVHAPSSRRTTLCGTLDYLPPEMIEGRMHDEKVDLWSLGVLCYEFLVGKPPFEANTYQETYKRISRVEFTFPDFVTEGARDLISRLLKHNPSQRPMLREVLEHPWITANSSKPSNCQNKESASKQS
Sequence of UniProt Q16644 (whole entry, looked up): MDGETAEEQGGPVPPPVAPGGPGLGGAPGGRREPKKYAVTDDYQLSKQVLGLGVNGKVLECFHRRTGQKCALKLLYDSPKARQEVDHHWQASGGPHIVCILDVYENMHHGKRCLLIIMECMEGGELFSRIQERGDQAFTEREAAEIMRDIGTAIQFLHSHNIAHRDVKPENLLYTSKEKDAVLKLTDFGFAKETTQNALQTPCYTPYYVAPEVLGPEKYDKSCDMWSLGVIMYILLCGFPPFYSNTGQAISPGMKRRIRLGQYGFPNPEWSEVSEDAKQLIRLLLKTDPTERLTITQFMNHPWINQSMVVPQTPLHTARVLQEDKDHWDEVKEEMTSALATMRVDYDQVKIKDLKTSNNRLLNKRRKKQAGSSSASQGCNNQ
Sequence of UniProt P53355 (whole entry, looked up): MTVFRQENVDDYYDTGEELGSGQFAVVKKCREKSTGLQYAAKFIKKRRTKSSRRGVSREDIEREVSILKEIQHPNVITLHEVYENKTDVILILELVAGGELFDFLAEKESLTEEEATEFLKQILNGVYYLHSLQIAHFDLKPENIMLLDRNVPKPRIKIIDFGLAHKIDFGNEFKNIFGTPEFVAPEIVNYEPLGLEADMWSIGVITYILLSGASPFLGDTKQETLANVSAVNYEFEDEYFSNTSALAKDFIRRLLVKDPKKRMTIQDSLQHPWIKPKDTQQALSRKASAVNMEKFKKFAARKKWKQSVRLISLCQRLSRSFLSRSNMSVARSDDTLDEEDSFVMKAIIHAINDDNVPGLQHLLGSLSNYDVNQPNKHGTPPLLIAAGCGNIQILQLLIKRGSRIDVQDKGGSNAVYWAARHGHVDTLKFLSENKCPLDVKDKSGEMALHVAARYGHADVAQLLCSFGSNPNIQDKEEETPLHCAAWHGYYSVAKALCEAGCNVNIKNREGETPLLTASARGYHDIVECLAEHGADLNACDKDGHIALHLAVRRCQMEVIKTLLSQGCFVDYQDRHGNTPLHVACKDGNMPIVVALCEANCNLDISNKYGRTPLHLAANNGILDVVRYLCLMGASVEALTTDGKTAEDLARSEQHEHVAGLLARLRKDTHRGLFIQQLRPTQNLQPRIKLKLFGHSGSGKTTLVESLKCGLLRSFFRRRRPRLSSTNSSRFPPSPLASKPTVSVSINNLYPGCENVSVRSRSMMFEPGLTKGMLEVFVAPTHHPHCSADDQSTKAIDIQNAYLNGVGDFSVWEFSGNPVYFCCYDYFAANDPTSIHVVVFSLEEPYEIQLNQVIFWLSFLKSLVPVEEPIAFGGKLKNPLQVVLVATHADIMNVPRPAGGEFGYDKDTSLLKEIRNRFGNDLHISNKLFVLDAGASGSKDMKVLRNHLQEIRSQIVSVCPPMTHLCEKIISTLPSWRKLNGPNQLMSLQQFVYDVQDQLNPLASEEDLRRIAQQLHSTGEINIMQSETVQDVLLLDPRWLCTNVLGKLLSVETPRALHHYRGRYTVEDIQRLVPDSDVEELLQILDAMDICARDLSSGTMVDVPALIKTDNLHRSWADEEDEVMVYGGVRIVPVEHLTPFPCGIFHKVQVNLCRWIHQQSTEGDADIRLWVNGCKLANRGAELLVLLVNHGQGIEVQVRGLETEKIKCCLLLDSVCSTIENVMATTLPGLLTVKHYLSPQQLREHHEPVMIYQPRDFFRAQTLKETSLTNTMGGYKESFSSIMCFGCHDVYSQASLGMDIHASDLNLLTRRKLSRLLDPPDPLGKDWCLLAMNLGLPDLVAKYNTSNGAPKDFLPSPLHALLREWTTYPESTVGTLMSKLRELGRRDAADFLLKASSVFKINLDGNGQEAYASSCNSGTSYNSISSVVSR
Sequence of UniProt O94806 (whole entry, looked up): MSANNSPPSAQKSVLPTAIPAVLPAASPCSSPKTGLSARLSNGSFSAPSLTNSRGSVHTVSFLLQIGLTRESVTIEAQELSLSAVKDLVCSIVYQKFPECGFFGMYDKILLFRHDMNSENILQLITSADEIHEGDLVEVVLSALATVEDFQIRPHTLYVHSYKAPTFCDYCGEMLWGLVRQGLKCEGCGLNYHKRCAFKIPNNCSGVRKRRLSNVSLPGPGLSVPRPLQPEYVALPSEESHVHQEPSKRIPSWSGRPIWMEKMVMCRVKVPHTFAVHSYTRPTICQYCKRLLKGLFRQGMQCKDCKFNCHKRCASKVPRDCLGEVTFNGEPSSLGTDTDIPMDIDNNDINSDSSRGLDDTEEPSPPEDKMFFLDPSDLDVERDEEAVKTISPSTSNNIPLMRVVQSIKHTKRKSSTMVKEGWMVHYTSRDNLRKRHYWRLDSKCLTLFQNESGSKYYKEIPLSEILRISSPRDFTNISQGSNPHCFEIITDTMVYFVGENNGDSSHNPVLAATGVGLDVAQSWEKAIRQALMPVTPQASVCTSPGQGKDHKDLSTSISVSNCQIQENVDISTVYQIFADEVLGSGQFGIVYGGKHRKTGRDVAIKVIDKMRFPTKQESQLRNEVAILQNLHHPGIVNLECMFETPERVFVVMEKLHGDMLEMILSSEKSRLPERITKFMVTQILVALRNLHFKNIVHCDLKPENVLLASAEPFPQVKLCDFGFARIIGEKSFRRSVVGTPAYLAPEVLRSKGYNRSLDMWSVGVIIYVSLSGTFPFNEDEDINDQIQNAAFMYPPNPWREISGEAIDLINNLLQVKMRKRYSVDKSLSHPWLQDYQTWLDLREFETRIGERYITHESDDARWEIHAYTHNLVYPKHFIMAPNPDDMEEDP

Block 1 — cell line: Gaucher fibroblasts L444P/L444P; method: 4-MUG hydrolysis, cell lysate; concentration: 0.1 µM; time: 72 h; relative to: vehicle
`Ic1ccc(Nc2nc(NCCN3CCOCC3)nc(N3CCSCC3)n2)cc1` gave a GCase activity of 103%.
`CCOc1ccc2nc(Sc3nc(Nc4ccc(I)cc4)nc(N4CCOCC4)n3)sc2c1` gave a GCase activity of 101%.
`Ic1ccc(Nc2nc(NCCN3CCOCC3)nc(N3CCNCC3)n2)cc1` has a GCase activity of 99%.
`Ic1ccc(Nc2nc(NCCc3c[nH]c4ccccc34)nc(N3CCOCC3)n2)cc1` gave a GCase activity of 193%.

Block 2 — observed: enzyme activity
Structure (SMILES): NC/C(=C\F)COc1cc(Cn2c(=S)[nH]c(=O)c3[nH]ccc32)ccc1Cl
Target: Myeloperoxidase (MPO, Homo sapiens, UniProt P05164)
Sequence of UniProt P05164 (whole entry, looked up): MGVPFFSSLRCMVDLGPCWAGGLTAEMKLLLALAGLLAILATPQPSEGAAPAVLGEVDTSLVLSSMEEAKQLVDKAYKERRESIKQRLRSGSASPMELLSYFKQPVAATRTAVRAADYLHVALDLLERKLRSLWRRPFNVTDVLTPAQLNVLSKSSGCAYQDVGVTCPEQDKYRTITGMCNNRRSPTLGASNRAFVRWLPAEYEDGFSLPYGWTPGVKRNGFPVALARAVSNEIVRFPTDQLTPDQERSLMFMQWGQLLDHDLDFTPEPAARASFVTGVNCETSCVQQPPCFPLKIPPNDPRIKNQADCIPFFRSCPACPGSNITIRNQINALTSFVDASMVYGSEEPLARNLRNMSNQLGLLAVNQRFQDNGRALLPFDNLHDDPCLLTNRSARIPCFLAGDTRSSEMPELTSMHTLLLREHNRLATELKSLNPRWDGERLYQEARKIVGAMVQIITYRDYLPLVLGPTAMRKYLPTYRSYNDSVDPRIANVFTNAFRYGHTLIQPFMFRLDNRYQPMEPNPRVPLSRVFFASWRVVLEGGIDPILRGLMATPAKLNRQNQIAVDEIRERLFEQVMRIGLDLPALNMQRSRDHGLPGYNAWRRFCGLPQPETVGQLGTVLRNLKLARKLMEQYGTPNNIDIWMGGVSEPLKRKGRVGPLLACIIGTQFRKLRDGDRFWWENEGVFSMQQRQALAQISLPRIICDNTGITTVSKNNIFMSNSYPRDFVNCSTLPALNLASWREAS
For inhibitor, fluorescence; 3.333 µM: inhibition read 99%.
It gave 100% for inhibition (inhibitor, fluorescence; 30 µM).
The inhibition was 88.3% and 89.9% (0.0412 µM).
For 0.0137 µM: inhibition read 69.7% and 61.5%.
The inhibition was 18.4% and 0.678% (0.0015 µM).

Block 3
SMILES: O=C(O)C1(O)Oc2ccccc2N(Cc2ccccc2)C1=O (centres unmarked)
It gave 17.6% for inhibition (Arabidopsis thaliana; root length; Col-0; 25.0 µg/mL, 7 days, seed germination, dark).
Arabidopsis thaliana; root length; Col-0, seedlings; 12.5 µg/mL; relative to: water control — inhibition: 4.59%.
Eclipta prostrata; fresh weight; 150 g ai/ha, post-emergence treatment — inhibition: 53.7% and 47.7% and 47%.
For Arabidopsis thaliana; hypocotyl length; Col-0; 3.125 µg/mL, 7 days, seed germination, dark: inhibition read 1.1%.
For Arabidopsis thaliana; hypocotyl length; Col-0, seedlings; 50 µg/mL: inhibition read 30.8%.
For Zea mays; fresh weight; soil surface spray, 150 g ai/ha, 21 days, pre-emergence crop safety: inhibition read 10.4% and 13.4% and 12.5%.
The inhibition was 74.4% and 78.1% (Setaria viridis; fresh weight; 150 g ai/ha, pre-emergence treatment).
The inhibition was 6.6% (Arabidopsis thaliana; hypocotyl length; Col-0, seedlings; 3.125 µg/mL).
For Alopecurus japonicus; fresh weight; 150 g ai/ha, pre-emergence treatment: inhibition read 68.2% and 68.6% and 65.4%.
Arabidopsis thaliana; root length; Col-0; 12.5 µg/mL, 7 days, seed germination, dark — inhibition: 7.9%.
It gave 9.5% for inhibition (Arabidopsis thaliana; root length; Col-0; 3.13 µg/mL, 7 days, seed germination, dark).
It gave 43.6% for inhibition (Arabidopsis thaliana; root length; Col-0, seedlings; 100 µg/mL).
It gave 45.6% for inhibition (Arabidopsis thaliana; root length; Col-0; 100 µg/mL, 7 days, seed germination, dark).

Block 4 — observed: cell growth or viability; method: ATP luminescence; time: 6 days
Compound: Cc1ncsc1-c1ccc(C(CO)NC(=O)C2CC(O)CN2C(=O)C(C(C)C)n2cc(-c3ccc(COc4c(-c5c(C)c(F)cc6[nH]ncc56)c(C5CC5)cc5c(N6CC7CC6CN7)nc(OC6CCOCC6)nc45)cc3)nn2)cc1 (centres unmarked)
It gave 83.1% and 85.9% and 90.8% and 88.6% for viability (A-375; 10 nM).
For SW-403; 1 µM: viability read 9.25% and 10% and 11.2% and 12.7%.
A-375; 0.1 µM — viability: 88.9% and 80.2% and 91.8% and 88.1%.
For LCLC-97TM1; 30 nM: viability read 106% and 104% and 91.7% and 93.1%.
PSN1; 10 nM — viability: 90% and 83.8% and 85.3% and 97%.
BXPC-3; 3 µM — viability: 86.2% and 86% and 120% and 76%.
For T24; 0.1 µM: viability read 95.5% and 95.2% and 98.6% and 95.8%.

Block 5 — cell line: U-87 MG; concentration: concentration not given; relative to: DMSO
Structure (SMILES): CCN1/C(=C/C=C2\CCCC(/C=C/C3=[N+](CC)c4ccccc4C3(C)C)=C2NCCCCCCCCN2CCC(Nc3nc4ccccc4n3Cc3ccc(F)cc3)CC2)C(C)(C)c2ccccc21
refers to: PHLDB1 mRNA — “log2 fold change”: -1.4.
refers to: PLSCR4 mRNA — “log2 fold change”: -1.37.
refers to: EME1 mRNA — “log2 fold change”: -2.06.
It gave 1.23 for “log2 fold change” (refers to: SEPHS2 mRNA).
It gave -2.03 for “log2 fold change” (refers to: INSYN2B mRNA).
refers to: KDM6B mRNA — “log2 fold change”: 1.36.
The “log2 fold change” was 1.68 (refers to: KIZ mRNA).
It gave -2.07 for “log2 fold change” (refers to: GPRIN3 mRNA).
It gave 1.91 for “log2 fold change” (refers to: IQCG mRNA).
The “log2 fold change” was 0.913 (refers to: NBPF12 mRNA).
It gave -2.24 for “log2 fold change” (refers to: FOSB mRNA).

Block 6 — observed: kinase activity
SMILES: CN(C1COC1)C(C)(C)/C=C(\C#N)C(=O)N1CCC[C@H]1Cn1nc(-c2ccc(Oc3ccccc3)cc2F)c2c(N)ncnc21
For PRKD3 (Homo sapiens, UniProt O94806); 1 µM: inhibition read 3%.
It gave 6% for inhibition (MAPKAPK3 (Homo sapiens, UniProt Q16644); 1 µM).
MAP2K1 (Homo sapiens, UniProt Q02750); 0.1 µM — inhibition: -1%.
The inhibition was 1% (Aurora kinase A (AURKA, Homo sapiens, UniProt O14965); 0.1 µM).
MUSK (Homo sapiens, UniProt O15146); 1 µM — inhibition: 2%.
For PRKCQ (Homo sapiens, UniProt Q04759); 1 µM: inhibition read 5%.
EPHB1 (Homo sapiens, UniProt P54762); 1 µM — inhibition: -1%.
The inhibition was 2% (CLK2 (Homo sapiens, UniProt P49760); 1 µM).
It gave 2% for inhibition (NTRK2 (Homo sapiens, UniProt Q16620); 0.1 µM).
HIPK2 (Homo sapiens, UniProt Q9H2X6); 0.1 µM — inhibition: 3%.
For SRMS (Homo sapiens, UniProt Q9H3Y6); 1 µM: inhibition read 15%.
The inhibition was -1% (TEK (Homo sapiens, UniProt Q02763); 0.1 µM).
The inhibition was 2% (DAPK1 (Homo sapiens, UniProt P53355); 1 µM).
PTK6 (Homo sapiens, UniProt Q13882); 1 µM — inhibition: 70%.
The inhibition was 0% (NEK7 (Homo sapiens, UniProt Q8TDX7); 0.1 µM).

Single results of other studies
PKMYT1: Membrane-associated tyrosine- and threonine-specific cdc2-inhibitory kinase (PKMYT1, Homo sapiens, UniProt Q99640)
Sequence of UniProt Q99640 (whole entry, looked up): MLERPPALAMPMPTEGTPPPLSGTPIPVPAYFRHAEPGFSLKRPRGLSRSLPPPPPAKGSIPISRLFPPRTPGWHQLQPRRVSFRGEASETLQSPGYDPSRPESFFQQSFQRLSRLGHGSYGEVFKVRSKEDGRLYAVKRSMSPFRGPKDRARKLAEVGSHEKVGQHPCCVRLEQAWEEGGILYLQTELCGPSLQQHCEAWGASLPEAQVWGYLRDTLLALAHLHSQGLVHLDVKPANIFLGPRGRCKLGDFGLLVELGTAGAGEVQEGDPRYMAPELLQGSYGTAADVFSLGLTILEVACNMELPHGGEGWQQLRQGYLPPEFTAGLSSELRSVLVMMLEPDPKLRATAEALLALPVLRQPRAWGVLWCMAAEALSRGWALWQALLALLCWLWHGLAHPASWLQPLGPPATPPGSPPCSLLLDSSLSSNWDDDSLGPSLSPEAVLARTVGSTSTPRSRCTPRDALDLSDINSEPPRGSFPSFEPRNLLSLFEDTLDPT
For `Cc1ccc(O)c(C)c1-c1cnc2[nH]c(-c3cnc(N)nc3)cc2c1C#N`, plasma concentration read “not detected” (Sprague-Dawley rat; intravenous, dose not given, 24 h).
`Cc1ccc(O)c(C)c1-c1cnc2[nH]c(-c3cnc(N4CCC(CN5CCN(c6ccc7c(c6)C(=O)N(C6CCC(=O)NC6=O)C7=O)CC5)CC4)nc3)cc2c1C#N` (centres unmarked) — result for “remaining protein level”: 20.1% (PKMYT1; immunoblotting; HCC1569; 1 µM, 8 h).
`Cc1ccc(O)c(C)c1-c1cnc2[nH]c(-c3cnc(N4CCC5(CC4)CC(N4CCN(c6cc7c(cc6F)c(N6CCC(=O)NC6=O)nn7C)CC4)CO5)nc3)cc2c1C#N` (racemic) gave an inhibition of 44.2% and 43% (PKMYT1; binding, HTRF; 4.12 nM).
`Cc1ccc(O)c(C)c1-c1cnc2[nH]c(-c3cnc(N4CCC5(CC4)CC(N4CCN(c6ccc(N[C@H]7CCC(=O)NC7=O)cc6F)CC4)CO5)nc3)cc2c1C#N` (single isomer, unassigned): plasma concentration “not detected” (Sprague-Dawley rat; intravenous, dose not given, 24 h).

Repeated from above (block 5):
refers to: PLSCR4 mRNA — “log2 fold change”: -1.37.
refers to: EME1 mRNA — “log2 fold change”: -2.06.
It gave 1.23 for “log2 fold change” (refers to: SEPHS2 mRNA).
It gave -2.03 for “log2 fold change” (refers to: INSYN2B mRNA).
refers to: KDM6B mRNA — “log2 fold change”: 1.36.
The “log2 fold change” was 1.68 (refers to: KIZ mRNA).
It gave -2.07 for “log2 fold change” (refers to: GPRIN3 mRNA).
